Assay results from different studies.
Protocols differ between the studies behind these lines. ± gives the spread as reported.
Tumor necrosis factor receptor superfamily member 9/Nectin-4: Tumor necrosis factor receptor superfamily member 9/Nectin-4 (Homo sapiens, UniProt Q07011+Q96NY8)
UniProt Q96NY8, sequence (whole entry, looked up): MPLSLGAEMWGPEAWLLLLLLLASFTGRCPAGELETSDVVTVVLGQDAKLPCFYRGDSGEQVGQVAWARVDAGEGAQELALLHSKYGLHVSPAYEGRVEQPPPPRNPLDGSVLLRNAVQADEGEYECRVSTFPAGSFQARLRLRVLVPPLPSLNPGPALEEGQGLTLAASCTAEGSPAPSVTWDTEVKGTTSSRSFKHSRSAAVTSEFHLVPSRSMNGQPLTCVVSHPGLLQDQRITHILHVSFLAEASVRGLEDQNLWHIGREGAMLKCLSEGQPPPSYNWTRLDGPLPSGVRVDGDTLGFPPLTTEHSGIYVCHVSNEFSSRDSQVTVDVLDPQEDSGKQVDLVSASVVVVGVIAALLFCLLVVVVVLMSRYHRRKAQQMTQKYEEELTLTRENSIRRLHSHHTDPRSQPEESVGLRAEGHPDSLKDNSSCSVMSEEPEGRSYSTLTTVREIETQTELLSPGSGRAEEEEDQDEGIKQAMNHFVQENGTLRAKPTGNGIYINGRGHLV
UniProt Q07011, sequence (whole entry, looked up): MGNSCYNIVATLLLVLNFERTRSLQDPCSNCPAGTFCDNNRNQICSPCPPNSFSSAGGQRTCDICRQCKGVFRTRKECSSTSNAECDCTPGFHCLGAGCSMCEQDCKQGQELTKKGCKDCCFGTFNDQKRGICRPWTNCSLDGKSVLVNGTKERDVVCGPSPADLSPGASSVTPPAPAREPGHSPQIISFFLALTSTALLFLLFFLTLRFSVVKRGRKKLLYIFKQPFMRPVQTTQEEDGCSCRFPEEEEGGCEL
UniProt P34995, sequence (whole entry, unmodified, looked up): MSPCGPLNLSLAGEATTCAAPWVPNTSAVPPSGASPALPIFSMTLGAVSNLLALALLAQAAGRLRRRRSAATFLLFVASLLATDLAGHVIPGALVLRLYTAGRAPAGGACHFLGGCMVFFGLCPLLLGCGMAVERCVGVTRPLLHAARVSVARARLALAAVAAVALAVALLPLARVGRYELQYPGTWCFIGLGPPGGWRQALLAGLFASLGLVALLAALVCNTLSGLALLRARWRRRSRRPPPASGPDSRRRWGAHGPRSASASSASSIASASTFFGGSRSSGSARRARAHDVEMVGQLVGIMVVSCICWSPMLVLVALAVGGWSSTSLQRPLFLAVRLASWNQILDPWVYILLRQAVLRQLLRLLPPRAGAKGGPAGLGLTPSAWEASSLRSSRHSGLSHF
UniProt O60603, sequence (whole entry, looked up): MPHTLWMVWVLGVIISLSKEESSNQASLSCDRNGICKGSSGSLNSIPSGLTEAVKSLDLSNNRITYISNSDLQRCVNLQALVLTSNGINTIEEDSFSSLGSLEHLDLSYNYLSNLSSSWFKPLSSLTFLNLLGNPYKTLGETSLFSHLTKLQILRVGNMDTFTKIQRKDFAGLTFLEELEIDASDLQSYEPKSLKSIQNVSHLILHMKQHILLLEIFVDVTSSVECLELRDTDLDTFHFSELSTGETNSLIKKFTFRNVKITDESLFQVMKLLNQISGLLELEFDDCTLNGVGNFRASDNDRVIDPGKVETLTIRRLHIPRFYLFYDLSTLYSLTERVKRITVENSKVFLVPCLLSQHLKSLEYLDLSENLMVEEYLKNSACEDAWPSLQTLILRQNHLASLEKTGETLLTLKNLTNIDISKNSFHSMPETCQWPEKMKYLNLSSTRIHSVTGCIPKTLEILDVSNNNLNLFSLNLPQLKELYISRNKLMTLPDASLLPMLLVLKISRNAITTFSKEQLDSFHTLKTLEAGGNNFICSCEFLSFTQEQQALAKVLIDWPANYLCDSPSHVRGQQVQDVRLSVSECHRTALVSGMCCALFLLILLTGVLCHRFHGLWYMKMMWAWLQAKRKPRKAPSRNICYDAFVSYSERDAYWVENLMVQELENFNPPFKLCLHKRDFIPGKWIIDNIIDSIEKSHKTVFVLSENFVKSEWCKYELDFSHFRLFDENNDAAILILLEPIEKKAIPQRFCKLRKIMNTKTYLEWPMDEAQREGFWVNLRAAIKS
UniProt Q8NHB7, sequence (whole entry, unmodified, looked up): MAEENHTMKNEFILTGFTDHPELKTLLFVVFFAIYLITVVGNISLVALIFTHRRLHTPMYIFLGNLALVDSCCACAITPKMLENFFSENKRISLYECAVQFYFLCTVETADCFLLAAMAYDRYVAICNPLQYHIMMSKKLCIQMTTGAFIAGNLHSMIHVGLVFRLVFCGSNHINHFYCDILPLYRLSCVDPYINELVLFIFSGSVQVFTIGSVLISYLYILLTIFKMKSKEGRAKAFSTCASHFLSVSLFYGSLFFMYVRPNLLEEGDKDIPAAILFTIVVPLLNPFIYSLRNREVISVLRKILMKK
UniProt Q15399, sequence (whole entry, looked up): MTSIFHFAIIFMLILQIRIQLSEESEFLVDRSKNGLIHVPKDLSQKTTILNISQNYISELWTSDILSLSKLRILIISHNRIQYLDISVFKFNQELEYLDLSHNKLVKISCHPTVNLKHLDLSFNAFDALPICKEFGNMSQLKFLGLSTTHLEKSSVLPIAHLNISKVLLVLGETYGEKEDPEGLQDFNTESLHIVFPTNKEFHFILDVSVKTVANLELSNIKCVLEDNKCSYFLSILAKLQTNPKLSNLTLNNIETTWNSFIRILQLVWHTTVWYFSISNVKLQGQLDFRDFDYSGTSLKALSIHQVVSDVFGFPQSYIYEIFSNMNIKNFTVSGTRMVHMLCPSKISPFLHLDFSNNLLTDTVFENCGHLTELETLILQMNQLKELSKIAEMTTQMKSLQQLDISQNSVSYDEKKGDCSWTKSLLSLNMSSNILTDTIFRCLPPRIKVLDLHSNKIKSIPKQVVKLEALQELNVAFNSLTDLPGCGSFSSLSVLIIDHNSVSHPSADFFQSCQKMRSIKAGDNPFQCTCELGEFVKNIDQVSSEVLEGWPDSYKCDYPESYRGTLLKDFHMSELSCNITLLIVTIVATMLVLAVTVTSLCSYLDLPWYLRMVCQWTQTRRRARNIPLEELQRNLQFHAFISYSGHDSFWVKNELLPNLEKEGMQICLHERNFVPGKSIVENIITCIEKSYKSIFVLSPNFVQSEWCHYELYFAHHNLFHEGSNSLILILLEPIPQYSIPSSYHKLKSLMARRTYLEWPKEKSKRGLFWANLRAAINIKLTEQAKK
UniProt Q03181, sequence (whole entry, looked up): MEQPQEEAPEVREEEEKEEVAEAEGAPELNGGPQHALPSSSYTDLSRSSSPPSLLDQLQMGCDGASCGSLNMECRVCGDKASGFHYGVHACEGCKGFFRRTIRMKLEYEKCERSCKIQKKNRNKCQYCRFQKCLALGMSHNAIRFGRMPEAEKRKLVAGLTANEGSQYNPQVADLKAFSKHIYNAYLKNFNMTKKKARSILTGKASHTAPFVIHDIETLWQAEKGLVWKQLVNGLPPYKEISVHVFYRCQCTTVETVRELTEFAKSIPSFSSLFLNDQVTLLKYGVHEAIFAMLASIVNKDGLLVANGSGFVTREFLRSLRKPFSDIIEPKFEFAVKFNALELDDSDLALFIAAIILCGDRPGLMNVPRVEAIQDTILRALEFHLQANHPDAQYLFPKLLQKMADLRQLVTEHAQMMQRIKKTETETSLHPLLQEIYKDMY

SMILES	target or system	assay	system	setting	how to read	quantity	result
Nc1nc(N)c2nc(CNc3ccc(C(=O)N[C@@H](CCC(=O)O)C(=O)O)cc3)cnc2n1	human iPSC-derived cardiomyocytes	MyBP-C/MYH ratio, plate-normalised SD score		concentration not given, primary screen	direction not given	activity score	3.3
O=C(O)CCCc1cc2cc(Cl)ccc2n1S(=O)(=O)c1ccc2ncsc2c1	PPARD (Homo sapiens, UniProt Q03181)	reporter gene, agonist, luciferase reporter		serum-free		EC50	1000 nM
CCCC[C@@H]1NC(=O)[C@H](Cc2ccc(O)cc2)NC(=O)[C@@H]2CCCN2C(=O)[C@H](CC(=O)O)NC(=O)[C@H](C)NC(=O)[C@H](Cc2ccccc2)NC(=O)[C@@H]2CSCCC(=O)N3CN(CN(C3)C(=O)CCSC[C@@H](C(=O)N[C@@H](CNC(=O)CCc3cn(CCOCCOCCOCCOCCOCCOCCOCCOCCOCCOCCNC(=O)N[C@H]4CSCCC(=O)N5CN6CN(C5)C(=O)CCSC[C@H](NC(=O)[C@@H](CC(=O)O)NC(=O)[C@H](Cc5cccc7ccccc57)NC(=O)[C@@H]5CCCN5C4=O)C(=O)N[C@@H](CCSC)C(=O)N[C@@H](CCCCNC(=N)N)C(=O)N[C@@H](CC(=O)O)C(=O)N[C@@H](Cc4c[nH]c5ccccc45)C(=O)N[C@@H](CO)C(=O)N[C@@H]([C@@H](C)O)C(=O)N4CCC[C@H]4C(=O)N4C[C@H](O)C[C@H]4C(=O)N[C@@H](Cc4c[nH]c5ccccc45)C(=O)N[C@H](C(N)=O)CSCCC6=O)nn3)C(N)=O)NC1=O)C(=O)CCSC[C@H](NC(=O)[C@H](C)NC(C)=O)C(=O)N[C@@H]([C@@H](C)CC)C(=O)N[C@@H](CCC(=O)O)C(=O)N[C@@H](CCC(=O)O)C(=O)NCC(=O)N[C@@H](CCC(N)=O)C(=O)N[C@@H](Cc1ccc(O)cc1)C(=O)N2	Tumor necrosis factor receptor superfamily member 9/Nectin-4	reporter gene, agonist	HT-1376 coculture with reporter cells			EC50	3.12 nM
Nc1nc2c(ncn2[C@@H]2O[C@@H]3COP(=O)(O)O[C@H]3[C@H]2O)c(=O)[nH]1	Cone cGMP-gated channel (Morone saxatilis, UniProt Q3I0N1+Q3I0N2)	channel current, agonist, suction electrode	Morone saxatilis, cone outer segments	with: 2 µM Ca2+		EC50	265000 ± 21800 nM
CCCC[C@@H]1NC(=O)[C@H](Cc2ccc(O)cc2)NC(=O)[C@@H]2CCCN2C(=O)[C@H](CC(=O)O)NC(=O)[C@H](C)NC(=O)[C@H](Cc2ccccc2)NC(=O)[C@@H]2CSCCC(=O)N3CN(CN(C3)C(=O)CCSC[C@@H](C(=O)N[C@@H](CNC(=O)CCOCCOCCOCCOCCOCCOCCOCCOCCOCCOCCOCCOCCn3cc(CCC(=O)NCCC(=O)N(C)CC(=O)N(C)CC(=O)N(C)CC(=O)N(C)CC(=O)N(C)CC(=O)N(C)CC(=O)N(C)CC(=O)N(C)CC(=O)N(C)CC(=O)N(C)CC(=O)N[C@H]4CSCCC(=O)N5CN6CN(C5)C(=O)CCSC[C@H](NC(=O)[C@@H](CC(=O)O)NC(=O)[C@H](Cc5cccc7ccccc57)NC(=O)[C@@H]5CCCN5C4=O)C(=O)N[C@@H](CCSC)C(=O)N[C@@H](CCCCNC(=N)N)C(=O)N[C@@H](CC(=O)O)C(=O)N[C@@H](Cc4c[nH]c5ccccc45)C(=O)N[C@@H](CO)C(=O)N[C@@H]([C@@H](C)O)C(=O)N4CCC[C@H]4C(=O)N4C[C@H](O)C[C@H]4C(=O)N[C@@H](Cc4c[nH]c5ccccc45)C(=O)N[C@H](C(N)=O)CSCCC6=O)nn3)C(N)=O)NC1=O)C(=O)CCSC[C@H](NC(C)=O)C(=O)N[C@@H](CC(C)(C)C)C(=O)N1CCC[C@H]1C(=O)N[C@@H](CCC(=O)O)C(=O)N[C@H](C)C(=O)N1CCC[C@H]1C(=O)N[C@@H](Cc1ccc(O)cc1)C(=O)N2	Tumor necrosis factor receptor superfamily member 9/Nectin-4	reporter gene, agonist	HT-1376 reporter coculture			EC50	1.1 nM
COc1nccnc1C(C)C	OR5K1 (Homo sapiens, UniProt Q8NHB7, A2T/I280V/T15M/V39I/Y193C)	cAMP, agonist	HEK293 transfected with OR5K1			EC50	498000 ± 110000 nM
CNc1ccc([N+](=O)[O-])cc1-n1cnc(-c2ccccc2)c1	Toll-like receptor 1/2 (Homo sapiens, UniProt O60603+Q15399)	reporter gene, agonist	HEK-Blue hTLR2	24 h		EC50	> 100000 nM
Cc1cnc(C)c(C)n1	uncharacterized protein (Vulpes vulpes, UniProt A0A3Q7SVK8)	cAMP, agonist	HEK293 transfected with uncharacterized protein			EC50	157000 ± 30800 nM
CCCC[C@@H]1NC(=O)[C@H](Cc2ccc(O)cc2)NC(=O)[C@@H]2CCCN2C(=O)[C@H](CCC(=O)O)NC(=O)[C@H](C)NC(=O)[C@H](Cc2ccccc2)NC(=O)[C@@H]2CSCCC(=O)N3CN(CN(C3)C(=O)CCSC[C@H](NC(C)=O)C(=O)N[C@@H](CC(C)(C)C)C(=O)N3CCC[C@H]3C(=O)N[C@@H](CCC(=O)O)C(=O)N[C@H](CCCCNC(=O)CCc3cn(CCOCCOCCOCCN(CCOCCOCCOCCC(=O)N[C@H]4CSCCC(=O)N5CN6CN(C5)C(=O)CCSC[C@H](NC(=O)[C@@H](CC(=O)O)NC(=O)[C@H](Cc5cccc7ccccc57)NC(=O)[C@@H]5CCCN5C4=O)C(=O)N[C@@H](CCSC)C(=O)N[C@@H](CCCCNC(=N)N)C(=O)N[C@@H](CC(=O)O)C(=O)N[C@@H](Cc4c[nH]c5ccccc45)C(=O)N[C@@H](CO)C(=O)N[C@@H]([C@@H](C)O)C(=O)N4CCC[C@H]4C(=O)N4C[C@H](O)C[C@H]4C(=O)N[C@@H](Cc4c[nH]c5ccccc45)C(=O)N[C@H](C(N)=O)CSCCC6=O)CCOCCOCCOCCn4cc(CCC(=O)NCCCC[C@H]5NC(=O)[C@H](CCC(=O)O)NC(=O)[C@@H]6CCCN6C(=O)[C@H](CC(C)(C)C)NC(=O)[C@@H](NC(C)=O)CSCCC(=O)N6CN7CN(C6)C(=O)CCSC[C@H](NC(=O)[C@H](Cc6ccc(O)cc6)NC(=O)[C@@H]6CCCN6C5=O)C(=O)N[C@@H](Cc5ccccc5)C(=O)N[C@@H](C)C(=O)N[C@@H](CCC(=O)O)C(=O)N5CCC[C@H]5C(=O)N[C@@H](Cc5ccc(O)cc5)C(=O)N[C@@H](CCCC)C(=O)N[C@H](C(N)=O)CSCCC7=O)nn4)nn3)C(=O)N3CCC[C@H]3C(=O)N[C@@H](Cc3ccc(O)cc3)C(=O)N2)C(=O)CCSC[C@@H](C(N)=O)NC1=O	Tumor necrosis factor receptor superfamily member 9/Nectin-4	reporter gene, agonist	HT-1376 coculture with reporter cells			EC50	11.9 nM
O=C(O)c1ccc[n+]([O-])c1	human iPSC-derived cardiomyocytes	MyBP-C/MYH ratio, plate-normalised SD score		concentration not given, primary screen	direction not given	activity score	4.8
Cn1cc(-c2ccc(-c3cncc(Cl)c3N3CCC4(CCNC4=O)CC3)cc2)cn1	COLO 205	gene expression, microarray, measured: PCK2 mRNA		concentration not given, 2 h	baseline: untreated cells	log2 fold change	-1.45
CCCCC[C@H](O)/C=C/[C@H]1[C@H](O)CC(=O)[C@@H]1C/C=C\CCCC(=O)O	PTGER1 (Homo sapiens, UniProt P34995, S341A)	IP1 accumulation, agonist	AD293	EP1 S341A mutant		EC50	1.46 nM

Some of these lines once more:
SMILES	target or system	assay	system	setting	how to read	quantity	result
Nc1nc(N)c2nc(CNc3ccc(C(=O)N[C@@H](CCC(=O)O)C(=O)O)cc3)cnc2n1	human iPSC-derived cardiomyocytes	MyBP-C/MYH ratio, plate-normalised SD score		concentration not given, primary screen	direction not given	activity score	3.3
